Measurements pooled from the literature.
Numbered parts are unrelated; each lists some results of a single study.

Study 1 — method: RNA Bind-n-Seq; form: RNA; medium: in vitro; concentration: 100 nM; relative to: input RNA pool; reading: higher = stronger binding
Target: RING finger protein unkempt homolog, zinc fingers 1-6, SBP tag (UNK, Homo sapiens, UniProt Q9C0B0, residues 30-357)
Sequence of UniProt Q9C0B0 (30-357, looked up): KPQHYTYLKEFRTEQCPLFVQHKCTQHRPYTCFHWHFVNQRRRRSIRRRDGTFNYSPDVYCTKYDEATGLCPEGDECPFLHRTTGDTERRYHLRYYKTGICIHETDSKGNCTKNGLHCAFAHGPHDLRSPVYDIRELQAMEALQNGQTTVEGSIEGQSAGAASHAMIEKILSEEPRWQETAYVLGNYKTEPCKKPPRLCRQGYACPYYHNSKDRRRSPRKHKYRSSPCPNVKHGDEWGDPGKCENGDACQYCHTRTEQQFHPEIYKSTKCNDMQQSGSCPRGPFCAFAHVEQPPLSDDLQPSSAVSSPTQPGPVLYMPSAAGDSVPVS
Notes: RNA with constant flanks, vertebrate orthologous sites, ends assumed
Constant ends, left off below: GGGAGUUCUACAGUCCGACGAUC … CAACAGAGGAUUGAGCAUCA
Oligonucleotide | bound/input enrichment
CAACAGGAGGGUGCUGGACAAGGUGAGGAGCAAGUUAAGGCGGCAGAGGUUGGUAAAACUGCUGCCAUUGCACAAUGGCUAAGCUGCAGUCACUUCUCUGUGUAAAACCAGCUGUGUUUA | 0.42 ratio
CUCCUCUUAAUCCCAUUUCAUCUGUUUCAUAGUGCUGAAAUUCCAUCUUCAGCCUUAUUUUUAGUGAACUUAUUCUAAUUCUAGAGAAACUUCCAGCGUGGAUACUGUGAGCUAUAUGGA | 1.72 ratio
GUUAGGUCAUGACCCUUAUAGGUUAGGUCAUGAUGCCUACAGGUUAGGGCAGGACCCCUAUAGAUUAGGCCAUGAUCCCUACAGACUAACUCCUGAUCCCUAUAGGAUGUCACCUAGACC | 0.631 ratio
UUGGGACCAACUCUCCAAAUAGGAAUAGUAGUAAAAAAAAUAAGCAAAAUGAUAUUUGUAUAGAAAAAACAGAAGUUAAAUCAUGUAAAGUAAAUGCUGCCAGUGUUCCAGGCCCUAAAG | 2.11 ratio
GACAUAAUUGCAUACAAUAAUGAAAACCUAUAGAAAAUUUGUUUUUCAUUUUCCCCUUAGGCAUAGUCUUUUUUCCCAGGCAGAUCAUUCUGAGUGUGCGAGUGUGUGUGCACAUGUUAC | 1.11 ratio
CGGAACAAAUGCCCAGCUCAGAGCACUCCCUACAGGGGUUCUUCGGCACCGGCGGUGAAGUGGAUGUAUCCUAUCAGCAGGACCCCAGUAGUCAAAACGCGGUGUCCUGCAGUCCCUCCA | 0.16 ratio
AUCGCUCAGUGACAGUAUGCCAUCUGUAGCGGAUUCGCAUUCUAGUCAUUUUUCUGAAUUUAGCUGUUCUGACUUAGAAAGCAUGAAAACUUCUUGUAGUCAUGGUUCCAGUGAGUAUCA | 0.328 ratio
CUGAAUUAGAGGGCAAUAUAUGUUUCAUAAAGAAGAGUCUUUAUAAUUUUGUUUGUCAGAUAGUAUUUUGGAAUUUGUAUAAUGAGGAUGUUUAGAAGCCAUAUAAGUGGCUUUUUUUAA | 0.427 ratio

Study 2 — method: protein-binding microarray; form: double-stranded DNA, one strand shown; medium: in vitro; concentration: 940 nM top; notes: 60-bp whole probe; added: salmon DNA 0.4 mg/ml; relative to: random background probes; reading: higher = stronger binding; constant ends, left off below: GCCTAGCAC … GTCTTGATTCGCTTGACGCTGCTG
Target: Interferon regulatory factor 5, full length, phosphomimetic (IRF5, Homo sapiens, UniProt Q13568-2, residues 1-514, S451D/S453D/S456D/S462D)
Oligonucleotide | fitted relative affinity [z-score]
TTAGGTTTCGACACTGGGTAAGTGCTA | 8.34
TCAATTGTGCAATCTTAAACTGTGCTA | -0.271
TTTTTTTTCTGATCCATTTTGTGCTAG | 1.4
CAGGGTTTCAGATGCGTGAGGTGCTAG | 1.06
TTAAGTATCGGTTTCGGTTAGTGCTAG | 13.4
TCAGTGCTCATGCTTCTTACTGTGCTA | -0.343
GATGATTTCAGACTGGAGACGTGCTAG | -0.576
GACGATCTCAGACAGGAGACGTGCTAG | -0.253
TTAGATTTCGGACTGGGTTAGTGCTAG | 0.559
GACGATTTCGGGTATCGATACGTGCTA | 4.28
TTAGATTTCAGTCTCGGTTAGTGCTAG | 4.57
GACGGTATGGGTTTCGGGACGTGCTAG | 2.7
TTTTGCTTTCTTTTATGCTCGTGCTAG | 2.2
TTAGGACTGGGTTTCGGCTAGTGCTAG | 3.12
GACGATCACAGTATCGAGACGTGCTAG | 1.44
GACCGACTGCTTTTCCTGACGTGCTAG | 0.236
GACGATATCGGGTATAGAGACGTGCTA | -0.174
GACGATCTCAGACTTGAGACGTGCTAG | -0.45
TTCGGTCTCGGTCTCGGTTAGTGCTAG | 6.09

Study 3 — method: RNAcompete; form: RNA; medium: in vitro; concentration: 20 nM; notes: 7-mer, probes averaged, single round; relative to: mean of 7-mers; reading: higher = stronger binding
Target: PABPC1L2, full length, GST fusion (mouse, UniProt A0ABA7IW68)
Target sequence (chain): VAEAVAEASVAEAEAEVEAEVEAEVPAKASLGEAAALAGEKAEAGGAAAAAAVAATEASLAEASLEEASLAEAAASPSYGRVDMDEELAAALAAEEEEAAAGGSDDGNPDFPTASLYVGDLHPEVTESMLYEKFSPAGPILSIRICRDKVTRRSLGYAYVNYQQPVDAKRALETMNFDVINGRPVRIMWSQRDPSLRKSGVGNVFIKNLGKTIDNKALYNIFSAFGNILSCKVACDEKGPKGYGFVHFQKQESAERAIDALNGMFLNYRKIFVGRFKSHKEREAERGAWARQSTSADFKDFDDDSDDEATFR
Oligonucleotide | 7-mer Z-score
AUAUGUA | 0.0805
UAACGAA | 0.204
UUGUCUA | -0.329
AAGUGAG | 0.227
UAAUAAA | 1.01
CACACUC | -0.204
AGUUAUG | 0.0497
UAGGCCA | -0.112
UAGGUUC | -0.244
CAGGGUG | -0.0246
CGGGCUG | -0.0591
CACAGAA | 0.436
GUGAAAU | 0.0116
ACUGUUA | -0.32
CUAUAUG | -0.18
GGUAAAG | 0.423
CCGCGCC | -0.362
CGUUAGG | -0.32
CCCAGUA | -0.233
AUAUGCG | 0.0478
UAUACUC | -0.347
UUAAGCC | -0.22
CAGCUCC | -0.233
UAGACUA | -0.0917
GAGAAUG | 0.0315

Study 4 — method: protein binding microarray; form: double-stranded DNA, one strand shown; medium: in vitro; concentration: not given; relative to: not given; reading: higher = stronger binding
Target: Histone acetyltransferase KAT6A, both winged helices, GST fusion (KAT6A, Homo sapiens, UniProt Q92794, residues 1-181)
Notes: 8-mer, flanks averaged, mean of 2 arrays, mostly near background
Construct (chain): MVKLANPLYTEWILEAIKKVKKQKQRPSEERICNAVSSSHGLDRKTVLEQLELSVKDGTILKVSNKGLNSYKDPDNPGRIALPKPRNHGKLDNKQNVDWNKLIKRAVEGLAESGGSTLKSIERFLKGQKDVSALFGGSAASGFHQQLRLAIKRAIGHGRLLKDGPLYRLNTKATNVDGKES
Oligonucleotide | E-score
GGTGAGAC | -0.0804
ACGCACGA | 0.13
CATCTTAC | -0.111
ACGGGCCT | 0.234
AAGCCCAG | -0.188
GCACGCAC | 0.158
CAGGAATA | 0.0493
GCACCGGA | 0.228
AGATTGCT | -0.0737
CGAGCTTC | -0.00041
GTAGATAC | -0.048
GCAAAAGC | 0.0409
TGAGTAAA | -0.153
GGATAAGA | 0.0888
ACGGGTCG | 0.243
ATCTCGTA | -0.0642
CGAGCCCC | -0.17
CGAACTCC | 0.0395

For quick reference, copied from above (study 1):
Oligonucleotide | bound/input enrichment
CUCCUCUUAAUCCCAUUUCAUCUGUUUCAUAGUGCUGAAAUUCCAUCUUCAGCCUUAUUUUUAGUGAACUUAUUCUAAUUCUAGAGAAACUUCCAGCGUGGAUACUGUGAGCUAUAUGGA | 1.72 ratio
CGGAACAAAUGCCCAGCUCAGAGCACUCCCUACAGGGGUUCUUCGGCACCGGCGGUGAAGUGGAUGUAUCCUAUCAGCAGGACCCCAGUAGUCAAAACGCGGUGUCCUGCAGUCCCUCCA | 0.16 ratio
AUCGCUCAGUGACAGUAUGCCAUCUGUAGCGGAUUCGCAUUCUAGUCAUUUUUCUGAAUUUAGCUGUUCUGACUUAGAAAGCAUGAAAACUUCUUGUAGUCAUGGUUCCAGUGAGUAUCA | 0.328 ratio
GUUAGGUCAUGACCCUUAUAGGUUAGGUCAUGAUGCCUACAGGUUAGGGCAGGACCCCUAUAGAUUAGGCCAUGAUCCCUACAGACUAACUCCUGAUCCCUAUAGGAUGUCACCUAGACC | 0.631 ratio
